Results pooled from the literature.
Numbered parts are unrelated; each lists some results of a single study. Positions count from the first letter of the parent shown.

Set 1 — target: CCNB1, cyclin fold, Cln2 fusion (human); technique: yeast growth competition, sequencing; matrix: yeast; setting: strong parent motif; baseline: not given; reading: higher = stronger binding
Starting sequence: PKN2 docking peptide (human); VSAVRKLDFSDTM
Under “normalised enrichment score”, `S10N` is recorded as 3.69.
`V4T`: “normalised enrichment score” 1.8.
`K6A`: “normalised enrichment score” 2.48.
`D8W`: “normalised enrichment score” 1.57.
Under “normalised enrichment score”, `T12M` is recorded as 3.31.
`A3N`: “normalised enrichment score” 0.118.
`S10R` — result for “normalised enrichment score”: 2.62.
Under “normalised enrichment score”, `F9C` is recorded as 0.0128.
`F9R`: “normalised enrichment score” 0.266.
`T12E` — result for “normalised enrichment score”: 4.67.
`V4H` — result for “normalised enrichment score”: 0.552.
`A3K`: “normalised enrichment score” 0.624.
`T12Q` — result for “normalised enrichment score”: 3.69.
Under “normalised enrichment score”, `A3M` is recorded as 2.72.
Under “normalised enrichment score”, `D8T` is recorded as 2.34.
For `L7Y`, “normalised enrichment score” read -0.0219.
`K6V` — result for “normalised enrichment score”: 1.89.
Under “normalised enrichment score”, `A3G` is recorded as 0.684.
`D11V`: “normalised enrichment score” 2.71.
Under “normalised enrichment score”, `D11L` is recorded as 2.22.
Under “normalised enrichment score”, `D8K` is recorded as 1.48.
`L7V`: “normalised enrichment score” 0.151.
For `K6S`, “normalised enrichment score” read 2.25.
`F9S` — result for “normalised enrichment score”: 0.161.
For `D11M`, “normalised enrichment score” read 2.34.

Set 2 — technique: DHFR PCA, deep sequencing; matrix: yeast; added: (+)-ABA 2500 µM; baseline: wild-type fitted maximum; reading: higher = stronger binding
Target: ABI1, truncated, D143A, DHFR fusion (Arabidopsis thaliana)
Setting: methotrexate growth selection, single substitutions
Starting sequence: PYL1, truncated, DHFR fusion (Arabidopsis thaliana); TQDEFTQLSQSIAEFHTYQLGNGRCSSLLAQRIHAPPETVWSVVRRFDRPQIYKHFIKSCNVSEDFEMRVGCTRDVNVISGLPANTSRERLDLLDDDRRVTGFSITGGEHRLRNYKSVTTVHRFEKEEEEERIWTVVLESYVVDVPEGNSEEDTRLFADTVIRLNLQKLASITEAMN; partner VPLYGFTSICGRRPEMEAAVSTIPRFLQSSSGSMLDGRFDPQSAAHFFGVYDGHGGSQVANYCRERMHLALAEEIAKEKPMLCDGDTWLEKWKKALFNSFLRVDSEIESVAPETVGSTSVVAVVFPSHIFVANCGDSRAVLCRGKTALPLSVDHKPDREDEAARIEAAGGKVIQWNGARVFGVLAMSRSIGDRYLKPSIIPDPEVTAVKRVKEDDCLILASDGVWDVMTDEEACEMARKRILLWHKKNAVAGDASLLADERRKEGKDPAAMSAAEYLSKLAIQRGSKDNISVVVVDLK
For `C25M`, “relative binding score” read 94.2%.
`T119K`: “relative binding score” 81.8%.
For `H55N`, “relative binding score” read 97.1%.
`Q2H` — result for “relative binding score”: 97.7%.
For `A30S`, “relative binding score” read 105%.
For `A170T`, “relative binding score” read 91.9%.
`L91E`: “relative binding score” 5.94%.
`F124K` — result for “relative binding score”: 93.3%.
For `R113W`, “relative binding score” read 94.1%.
`G108V` — result for “relative binding score”: 60.1%.
`D3P`: “relative binding score” 98.9%.
For `S140E`, “relative binding score” read 18.2%.
For `L8V`, “relative binding score” read 97%.
Under “relative binding score”, `K54A` is recorded as 13.7%.
For `S27T`, “relative binding score” read 89.6%.
For `D48K`, “relative binding score” read 77.5%.
`E109H`: “relative binding score” 100%.

Set 3 — technique: protein-binding microarray; molecule type: double-stranded DNA, one strand shown; matrix: in vitro; tested at: 2540 nM top; setting: 60-bp whole probe; added: salmon DNA 0.4 mg/ml; baseline: random background probes; reading: higher = stronger binding; all sequences stand within: GCCTAGCAC … GTCTTGATTCGCTTGACGCTGCTG
Target: Interferon regulatory factor 3, full length, phosphomimetic (IRF3, Homo sapiens, UniProt Q14653, residues 1-427, S386D/S396D/S398D/S402D/T404D/S405D)
Residues (chain): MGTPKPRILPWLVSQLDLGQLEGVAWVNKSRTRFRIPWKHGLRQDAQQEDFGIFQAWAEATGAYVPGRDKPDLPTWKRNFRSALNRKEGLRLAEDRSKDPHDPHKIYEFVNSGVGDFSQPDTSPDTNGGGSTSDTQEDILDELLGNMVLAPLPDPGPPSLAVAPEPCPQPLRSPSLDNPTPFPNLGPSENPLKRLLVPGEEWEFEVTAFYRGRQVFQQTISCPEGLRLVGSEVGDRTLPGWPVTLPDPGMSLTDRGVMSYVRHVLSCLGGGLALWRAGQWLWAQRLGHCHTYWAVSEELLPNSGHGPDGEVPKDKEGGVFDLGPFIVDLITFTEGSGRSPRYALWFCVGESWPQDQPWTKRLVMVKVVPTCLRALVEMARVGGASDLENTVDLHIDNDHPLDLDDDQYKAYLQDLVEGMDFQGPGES
`GACGGTTTCGGGTTGCGGGACGTGCTA` — result for “fitted relative affinity”: 4.91 z-score.
`GACGATATCAGTCTCGAAACGTGCTAG`: “fitted relative affinity” 1.48 z-score.
Under “fitted relative affinity”, `GCCGGTCTCGGTATCGGGACGTGCTAG` is recorded as 2.57 z-score.
`GAGTTCCTCTCTAGGCACTGGTGCTAG`: “fitted relative affinity” 0.778 z-score.
`TTAGGTTTCCTTATCGTTTAGTGCTAG` — result for “fitted relative affinity”: 8.9 z-score.
Under “fitted relative affinity”, `TTAGGTTTCGGTCTGGGTTAGTGCTAG` is recorded as 6.91 z-score.
`TCGGTTTCCAAATTGTCTCTGTGCTAG` — result for “fitted relative affinity”: 8.33 z-score.
`TTAGCTTTCGGGACTGGGTTAGTGCTA` — result for “fitted relative affinity”: 1.37 z-score.
`GACGAACTGGGGTATCGAGACGTGCTA`: “fitted relative affinity” -0.439 z-score.
For `TTAGATTTCGGGTATCGGTTAGTGCTA`, “fitted relative affinity” read 2.04 z-score.
Under “fitted relative affinity”, `GACGATCTCAGTTTCGAAACGTGCTAG` is recorded as 3.99 z-score.
For `ACAAAGATTTTTATCAAATGGTGCTAG`, “fitted relative affinity” read 0.0636 z-score.
`GACGGTTCCGGTTTCGAGACGTGCTAG` — result for “fitted relative affinity”: 5.98 z-score.
`TCATCTTTCCTTACTTCACTGTGCTAG` — result for “fitted relative affinity”: 3.41 z-score.
For `TTAGGCTTCGGGTATCGGTTAGTGCTA`, “fitted relative affinity” read 0.0375 z-score.
`TCAAAACTCGTGTTTTTCACTGTGCTA` — result for “fitted relative affinity”: -0.311 z-score.
`TTAGGTATCGACACAGGGTTAGTGCTA`: “fitted relative affinity” 0.0802 z-score.
`GACGATCTCAGCCTCGAGACGTGCTAG` — result for “fitted relative affinity”: 0.105 z-score.
`TCAGTTTTTCATTTTGTACTGTGCTAG`: “fitted relative affinity” 2.43 z-score.
For `TTAGGTATCGTGTATCGGTTAGTGCTA`, “fitted relative affinity” read 1.18 z-score.
`TAGTTTATACTCTAGATGATGTGCTAG`: “fitted relative affinity” 0.144 z-score.
Under “fitted relative affinity”, `TCATTTTTTTCCCTGAAACTGTGCTAG` is recorded as 1.18 z-score.
Under “fitted relative affinity”, `TGAAAATTAGTGTTTGCCCTAGTGCTA` is recorded as -0.181 z-score.
Under “fitted relative affinity”, `CTCTGTCTAAAATTGTTAAAGTGCTAG` is recorded as -0.0373 z-score.
Under “fitted relative affinity”, `TTAGGACTGGGGACTGGGTGAGTGCTA` is recorded as -1.07 z-score.

Set 4 — technique: RNA Bind-n-Seq; molecule type: RNA; matrix: in vitro; tested at: 365 nM; baseline: no-protein control; reading: higher = stronger binding
Target: RNA binding protein fox-1 homolog 2, RRM domain, GST-SBP tag (RBFOX2, Homo sapiens, UniProt O43251-10, residues 100-194)
Setting: natural RNA segment, single round, ends assumed
All sequences stand within: GGGAGUUCUACAGUCCGACGAUC … UGGAAUUCUCGGGUGCCAA
Construct (chain): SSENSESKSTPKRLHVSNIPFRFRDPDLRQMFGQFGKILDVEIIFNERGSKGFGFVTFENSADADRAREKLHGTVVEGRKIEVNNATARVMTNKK
`GAAUGCAUGCCCAGUCAGAAAUCUGUUCUAUUCUGCUCCAGGAAAAUCGGAAACCUGUGAGUCAGAGUCAGAGAAACUUACCCAAGCAACGUAAUUCCUGUUUUCAUGGG` — result for “RBNS enrichment (R)”: 23.
`UUUUUUCUAGCUGAGAAUUAAUAAUGGUCUUUCUCUUUGGAAGUCAUAUCAAAGUAUAAUUGAUGGGGGCCUUGUUUUGUUUUGUUUUGGUUUUUGGAGACAGGGUCUCA` — result for “RBNS enrichment (R)”: 2.29.
`AACUCCAGUCUUCUCUCAACUGCCCAGUUGUAUGUUGUCAUCAAUCACUUUUUCAAGGCUGGGUAGAGACAAGUUUCUCCUCGUAACUUUGACCUCUCCCACUCUCCAAA`: “RBNS enrichment (R)” 0.451.
For `AGCGAGAUGGGUUUGUUCGGUGCCAGCCGACCAAGAUUGACUAGUUUGUUGGACUUAAACGACGAUUUGCUGCUGUGAACCCAGCAGGGUCGCCUCCCUCUGCAUCGGCC`, “RBNS enrichment (R)” read 1.4.
Under “RBNS enrichment (R)”, `AGGCACUAAGAUAAAGUCUAGUCCAGUUCUCAUUUUAAAAGUCAACUAGCUCUAAAGCUAGUUAGUGACAAAGUUGGAUACCAAAAAUAGCCAACACUAUGACAUAAAAA` is recorded as 0.271.
`AAGCUUCAGUAGCCUGUAGGCGGCUGUACUUGGAACAGACAUUUGGCUGCCAGUAGCAGGCCUGGCAUGGCGUGACGGGAGGGGCCUAAUUACCUAGCUGUUGCUGGACA`: “RBNS enrichment (R)” 0.734.
`CACUCCUUGCUUGAGUGGGUUAAAGGAACUAACAGUUGUCCCUUUAGGAGGACAAAAUGGGGUCAAGAGGACACAGAAGAGUUGUAUAGCACCAGAUUGGUUCCAAAUAG`: “RBNS enrichment (R)” 0.633.
`UCACGUUUUGCAGAAAACACCGUAAGAAACACUUCAGUCUUUCUGUAGUUUCCAUGCAUAUUUCACCAUGGUUCGCACUCUGAUCCUCAUCUGGUUUAGAAAGCAAUUCA` — result for “RBNS enrichment (R)”: 0.971.
`UCCCAUACUCACUCCUGACAGCUUUCCUGCACUGCAGCCUCCUGCUCCUCUGACUCUAGUGGGAACAGGCCCCAGCUCAGCCUCCGGCAGGGAGGUCACCCCUCCACUUC`: “RBNS enrichment (R)” 0.311.
Under “RBNS enrichment (R)”, `UCACCCCCUUCUGUGCAUCUUAGGAAUGAAAUGGUUGCUGUGUGCAGGUCAGGUUAAUGGAAGAACGAGUCUGGUGGUAUAGCGUGGUUUGAGAGAUGUCUUUCAGUUUU` is recorded as 4.05.
`UUUUAAAAAGUGCAAUCAAUAAAGCAGAGUUCUGUCAAGAAUGAGUAAGUUAACAGCCAGAGACAGACACUGUGCAGGCAUUGCAAAUAGAUGGAAUUACAGCAAAAUGU`: “RBNS enrichment (R)” 0.942.
`GCCGCCCAUCCUCGGGGACUGUGAGUGUCCUUGUCUUAGUCAAAGCACAUCUCCUACCAAAAUUGCUCCCAAGAUGGAGGGUGAGACCUCAGUGCUAGGUUGACAGGUGG`: “RBNS enrichment (R)” 0.516.

Set 5 — target: CREB3L1, bZIP domain (human); technique: DHFR protein complementation; matrix: yeast; baseline: wild-type JUN-FOS pair; reading: higher = stronger binding
Setting: single substitutions, most at no-binding floor
Starting sequence: JUN, bZIP domain (human); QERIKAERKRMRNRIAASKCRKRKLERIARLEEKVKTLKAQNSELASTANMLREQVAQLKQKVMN; partner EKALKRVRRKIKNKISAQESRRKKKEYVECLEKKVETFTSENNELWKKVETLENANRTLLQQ
`L52G` has a binding fitness of -1.51 natural log.
`L38I` has a binding fitness of -1.47 natural log.
`L52C` gave a binding fitness of -1.5 natural log.
`A46H` gave a binding fitness of -1.53 natural log.
For `L52M`, the binding fitness was -1.47 natural log.
`T37L` has a binding fitness of -1.27 natural log.
The binding fitness of `E33F` is reported as -1.36 natural log.
For `A46N`, the binding fitness was -1.16 natural log.
The binding fitness of `K34F` is reported as -1.4 natural log.
The binding fitness of `M51V` is reported as -1.43 natural log.
`R53W` has a binding fitness of -1.48 natural log.
For `R30C`, the binding fitness was -1.5 natural log.
`E32M` gave a binding fitness of -1.48 natural log.
For `T37Q`, the binding fitness was -1.37 natural log.
For `A49R`, the binding fitness was -1.46 natural log.
`L45S` has a binding fitness of -1.47 natural log.
For `I28R`, the binding fitness was -1.46 natural log.
`L52S` has a binding fitness of -1.51 natural log.
`A49T` has a binding fitness of -1.51 natural log.
The binding fitness of `L45T` is reported as -1.4 natural log.
The binding fitness of `T48L` is reported as -1.3 natural log.
`M51S` has a binding fitness of -1.39 natural log.
`T48K` gave a binding fitness of -1.26 natural log.
With `V56W` the binding fitness was -1.41 natural log.
`L38E` gave a binding fitness of -1.47 natural log.

For quick reference, copied from above (set 1):
Under “normalised enrichment score”, `D8K` is recorded as 1.48.
`L7V`: “normalised enrichment score” 0.151.
Under “normalised enrichment score”, `T12M` is recorded as 3.31.
`K6V` — result for “normalised enrichment score”: 1.89.
`T12E` — result for “normalised enrichment score”: 4.67.
`V4T`: “normalised enrichment score” 1.8.
Under “normalised enrichment score”, `S10N` is recorded as 3.69.
